# Experimental data gathered from unrelated publications.
# Every numbered part comes from another study and shows a few of its results, in no order. Positions count from the first letter of the parent shown.

# Study 1
# Target: Phosphate system positive regulatory protein PHO4, full length, GST-tagged (PHO4, Saccharomyces cerevisiae, UniProt P07270, residues 1-312)
# Technique: competition protein-binding microarray
# Form: double-stranded DNA, one strand shown
# Sample: in vitro
# Concentration: 2 µM
# Setting: whole 60-bp probe, lowest competitor level
# With: Cbf1 competitor, 0.05 µM
# Reading: higher = stronger binding
# Residues (chain): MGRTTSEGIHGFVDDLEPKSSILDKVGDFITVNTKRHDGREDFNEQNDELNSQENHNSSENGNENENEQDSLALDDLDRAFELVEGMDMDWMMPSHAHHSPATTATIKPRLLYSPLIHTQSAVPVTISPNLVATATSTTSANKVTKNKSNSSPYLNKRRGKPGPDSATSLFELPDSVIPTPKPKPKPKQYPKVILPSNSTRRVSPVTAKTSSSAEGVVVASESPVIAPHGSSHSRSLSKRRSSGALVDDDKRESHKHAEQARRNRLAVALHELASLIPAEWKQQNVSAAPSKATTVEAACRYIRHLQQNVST
Sequence,fluorescence intensity [a.u.]
GCAAAAACACCGCAACTCGTGGTGACGGGGTAAGAAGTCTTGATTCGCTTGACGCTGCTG,9330
AAATTACTAAGTTGACTGGTGGGTGACGCCGTATGAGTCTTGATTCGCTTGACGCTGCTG,3880
CGGAGAACAAAAGTAGGCGTGGGTAGTGAAGATCTTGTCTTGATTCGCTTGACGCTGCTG,7220
TCGGTTTCAAATTGTCATGCTCCGGAGTAATTGACTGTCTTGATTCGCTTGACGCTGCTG,5100
CTGTCGGCCCAGTTCCACGTTCATCGCAACTATCAAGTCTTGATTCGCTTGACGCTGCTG,9830
CTAACGAAGGTTTGTAGCGTGGGTGACAAGCCAAGTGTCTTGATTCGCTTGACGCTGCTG,6400
TGCGCAACAACTTTTCACGTGTCTTTATGTCTAGAAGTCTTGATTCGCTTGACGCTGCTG,14200
AAGAAGATTTACTCTCCCGTGATGGCGGGCCAATCAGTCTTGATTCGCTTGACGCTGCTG,3780
AAAGCGGTAATTTGTGTCGTGGGTGCAGATATCTATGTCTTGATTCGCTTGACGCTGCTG,6100
AATATCCTCAACCTACACGTCTTCACCATCAGTACCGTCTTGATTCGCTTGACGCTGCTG,5790

# Study 2
# Target: CCND1, cyclin fold, Cln2 fusion (human)
# Technique: yeast growth competition, sequencing
# Sample: yeast
# Setting: weak parent motif
# Relative to: not given
# Reading: higher = stronger binding
# Starting sequence: RB1 docking peptide (human); PKPLKKLRFDIEG; partner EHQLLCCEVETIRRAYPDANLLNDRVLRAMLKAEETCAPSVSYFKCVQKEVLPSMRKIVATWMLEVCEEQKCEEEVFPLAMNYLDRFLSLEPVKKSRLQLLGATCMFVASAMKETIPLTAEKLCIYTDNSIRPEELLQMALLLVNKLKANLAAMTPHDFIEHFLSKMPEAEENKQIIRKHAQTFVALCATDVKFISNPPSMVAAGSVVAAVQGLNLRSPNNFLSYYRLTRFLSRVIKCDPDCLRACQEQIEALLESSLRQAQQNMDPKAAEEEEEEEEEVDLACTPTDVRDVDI
Change,normalised enrichment score
P1W,0.175
K5D,-0.0591
K6M,0.322
K5I,0.227
K2F,0.118

# Study 3
# Target: Histone acetyltransferase KAT6A, both winged helices, GST fusion (KAT6A, Homo sapiens, UniProt Q92794, residues 1-181)
# Technique: protein binding microarray
# Form: double-stranded DNA, one strand shown
# Sample: in vitro
# Concentration: not given
# Setting: 8-mer, flanks averaged, mean of 2 arrays, mostly near background
# Relative to: not given
# Reading: higher = stronger binding
# Target sequence (chain): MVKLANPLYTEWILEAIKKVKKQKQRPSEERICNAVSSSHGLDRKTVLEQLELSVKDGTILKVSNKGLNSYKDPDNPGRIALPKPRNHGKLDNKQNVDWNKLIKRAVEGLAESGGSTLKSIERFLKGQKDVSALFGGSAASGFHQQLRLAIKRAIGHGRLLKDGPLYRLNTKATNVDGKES
Sequence,E-score
CGCAACAC,0.185
AATGGGAG,-0.202
CAGATGAA,-0.167
GAGGAACA,-0.0166
GTCCAGGA,-0.15
CCCTCCTC,-0.243
ATAGAAAG,0.0225
CCCGAACG,0.131
ACTGCTAA,-0.238
AAAGTGGA,-0.262
CCAATAAC,-0.00737
ATGTCTGG,-0.163
CCGATGGA,0.016
TTCCCCAA,-0.2

# Mixed results
Substance,target,test,system,setting,how to read,quantity,value
"PhoQ, residues 284 288 289 292 302 303 ALAMYF","PhoP, residues 12 14 15 18 19 VHTVL (Escherichia coli, UniProt P23836)","Sort-seq, measured: YFP reporter",E. coli,"PhoQ-PhoP variant library, with: 10 µM Mg2+","relative to: high Mg2+ state, higher = stronger signaling",fold induction,2.24

# Some of these lines once more (study 2):
Change,normalised enrichment score
P1W,0.175
K5D,-0.0591
K2F,0.118
K5I,0.227
